Measured values gathered from unrelated publications.
Parts stem from different laboratories: compare values within a part only. Substitutions count along the parent as printed.

Study 1 — technique: universal PBM; molecule type: double-stranded DNA, one strand shown; sample: in vitro; concentration: 600 nM; reading: higher = stronger binding
Target: Sal-like protein 4, full length isoform A (SALL4, Homo sapiens, UniProt Q9UJQ4, residues 1-1053)
Sequence of UniProt Q9UJQ4 (whole entry, looked up): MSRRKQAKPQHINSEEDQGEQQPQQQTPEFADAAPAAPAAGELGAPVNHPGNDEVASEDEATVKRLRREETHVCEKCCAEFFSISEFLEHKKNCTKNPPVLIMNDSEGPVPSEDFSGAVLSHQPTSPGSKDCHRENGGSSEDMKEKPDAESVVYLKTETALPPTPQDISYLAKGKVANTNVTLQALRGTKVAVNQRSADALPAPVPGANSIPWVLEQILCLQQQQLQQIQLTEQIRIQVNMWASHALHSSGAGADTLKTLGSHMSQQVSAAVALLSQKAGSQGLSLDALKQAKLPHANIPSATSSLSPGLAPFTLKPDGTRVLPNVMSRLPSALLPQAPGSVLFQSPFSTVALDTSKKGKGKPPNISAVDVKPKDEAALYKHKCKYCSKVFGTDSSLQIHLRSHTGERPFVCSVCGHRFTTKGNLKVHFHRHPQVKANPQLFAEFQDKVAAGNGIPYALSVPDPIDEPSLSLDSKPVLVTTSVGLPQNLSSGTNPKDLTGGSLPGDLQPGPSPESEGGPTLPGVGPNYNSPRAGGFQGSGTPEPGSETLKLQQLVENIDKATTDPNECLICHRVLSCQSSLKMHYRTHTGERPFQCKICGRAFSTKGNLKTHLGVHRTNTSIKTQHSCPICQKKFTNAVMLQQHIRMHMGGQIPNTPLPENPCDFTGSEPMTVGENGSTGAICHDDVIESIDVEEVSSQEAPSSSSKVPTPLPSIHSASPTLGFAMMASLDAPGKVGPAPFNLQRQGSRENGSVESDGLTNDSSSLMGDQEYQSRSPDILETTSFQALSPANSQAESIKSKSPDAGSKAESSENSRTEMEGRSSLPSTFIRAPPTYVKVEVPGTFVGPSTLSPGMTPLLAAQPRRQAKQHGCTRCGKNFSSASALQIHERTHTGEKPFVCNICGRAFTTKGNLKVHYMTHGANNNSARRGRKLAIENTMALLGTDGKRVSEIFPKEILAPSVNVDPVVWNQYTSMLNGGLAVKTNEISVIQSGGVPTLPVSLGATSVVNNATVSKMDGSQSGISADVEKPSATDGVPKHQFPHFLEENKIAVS
Setting: 8-mer, flanks averaged, mean of replicates
| Strand | E-score |
| --- | --- |
| ATAGCTAG | 0.0656 |
| CAAGGTGA | -0.185 |
| ATTAAAGC | 0.227 |
| CGCTGTTC | -0.189 |
| GGGAGGCA | -0.239 |
| TATTCACA | 0.238 |
| ACTCTTAC | 0.194 |
| GTTTCGTA | 0.142 |
| AAGCACTT | 0.0911 |
| CCTACTGC | -0.149 |
| CACGTAAG | 0.0899 |
| ATTCGTTC | 0.126 |
| AGGCCGCG | -0.216 |
| CACTCTGA | -0.18 |
| ATGTCGTG | -0.0928 |
| ATGCTAGC | 0.0595 |
| AACCGTTA | 0.0667 |
| AGGCTTAG | -0.0553 |
| AGTCCGTA | -0.0745 |
| CCTAATGC | -0.0551 |
| AGGTACCC | -0.307 |
| TTACAGAA | 0.219 |
| GCTTGCCC | -0.285 |
| GATGTAAA | 0.2 |
| GGCCGAAA | -0.0201 |

Study 2 — technique: RNA Bind-n-Seq; molecule type: RNA; sample: in vitro; concentration: not given; setting: RNA with constant flanks, ends assumed; baseline: input RNA pool; reading: higher = stronger binding
Target: RING finger protein unkempt homolog, zinc fingers 1-6, GST-SBP tag (UNK, Homo sapiens, UniProt Q9C0B0, residues 30-357)
Sequence of UniProt Q9C0B0 (30-357, looked up): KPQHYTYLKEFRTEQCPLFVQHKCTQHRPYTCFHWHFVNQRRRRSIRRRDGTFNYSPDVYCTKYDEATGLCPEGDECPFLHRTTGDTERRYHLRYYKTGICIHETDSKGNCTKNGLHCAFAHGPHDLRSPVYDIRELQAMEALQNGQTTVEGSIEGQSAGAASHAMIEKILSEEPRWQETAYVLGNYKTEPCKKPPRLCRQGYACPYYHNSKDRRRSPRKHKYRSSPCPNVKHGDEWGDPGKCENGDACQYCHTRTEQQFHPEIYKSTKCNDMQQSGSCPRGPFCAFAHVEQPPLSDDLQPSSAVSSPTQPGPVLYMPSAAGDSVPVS
Shared flanks, not repeated: GGGAGUUCUACAGUCCGACGAUC … CAACAGAGGAUUGAGCAUCA
| Strand | bound/input enrichment [ratio] |
| --- | --- |
| UCAAAAUUCUUCUCUGCCUACAAAAGUCAUUUCCGGAAUGUCCAUAGUGAAGACUUUGAAAACCGGAUUCUCCUUAACUGCCCUUACUGUACCUUCAAUGCAGAUAAAAAGACUUUGGAA | 0.173 |
| AAAGAAUGGAUAGAAUGUGCACAUGGAAUCGGUUAUACUCGGGCAGAGAAAGAGUGCAAGACCGAAUAUGAUGAUUUCGUAGAGUGUUUGCUUCGGCAGAAAACGAUGAGACGUGCAGGU | 0.325 |
| CUGCUUUUGGUGCUGCCUGUUGUGGAAGCAGUAGAAGCCGGUGAUGCAAUCGCCCUUUUGUCCGGUGUGGUUCUCAGCAUUACAGGCAUUUGUGCCUGCUUGGGGGUAUAUGCACGAAAA | 0.141 |
| UCAAGUAGAUGUUUUUCUGUUAUGUAAGCAAUAAUUUUUCCGUGUCUUAUUGAGUAUGGCCCGCGAUUAUUUAUUACAUGCUAGAUGGGUUCUUUGCAUGUGGGUUCCAUAUAGGUGCAG | 0.593 |
| UUAAGACCCUCGCUCCUGCUGCUAACACAGACCGUUAACCAGAGGAGGCUUCCAUCGCCGCCAUAAUGCCUGUCGUCGUACAGCUCAGUAGCCCGUUCUCUUUCACAGUUCAACGUGUAC | 0.142 |
| AGUAAACCUGGCAGCUAUAGAAUACACUAUGUGCAUUUAUAAUAGCUAUUUUAUAUAUUGCCGUGUUCAACAUUUUUAAAUUAAAUGUUUUACAUUCACAAGUGGUGGGGAGUCUUGUCA | 0.741 |
| AGGUUGGGCCAUGACCCCUAUAGAUUAGGUCAUGAUGCUUACAGGUUAGGACAAGACCCUUACCGAUCCGGCCAUGAUCCCUACAGACUAACUCCUGAUCCCUAUAGGAUGUCACCUAGA | 1.77 |
| AUUGAAAUAAAAGUAUUAUCAGAACUUGGUAGAGAAGCUCAGAAUCUUUCAGCUAUGGAAAUCCGAAAGAAAGCUAGAUCAUUUGCUAAAGCAGCCAUUGAGAAACAGAAAUCAGCAUUU | 0.192 |
| ACGCCAAAGCCACUUCGAAGUAGUGCUGACCCUGCACUCAAUCAAGAAGUUGCAUUAAAAUCCGAACCAAAUCCAGAGUCACUGGAACUUUCUUUUACCAUGCCCCAGAUUCAGGAUCAG | 0.153 |
| UGUACCCAGAUUCUAAGAACCUGGAGAAGGAUUAGCAGUUCUUAGUAAGUUUACUGUGUACCGGAACGGUUUGUAUUUCAUUACAGCUAUUCAUCUUUUCUACAUUAAAAAUAUUUUUCU | 1.83 |
| UCUGAGACUUCUUUCUUCCUUCCUUUUUUUUUUUUUGUUUUUUUUUUUAAGAGCCUGUGACCGUUACUGUGGAGCAGCCAGUUCAUGGGGUCCCCCUUGGGGCCCCACACCCCGUCUCUC | 1.64 |

Study 3 — technique: protein binding microarray; molecule type: double-stranded DNA, one strand shown; sample: in vitro; concentration: not given; baseline: not given; reading: higher = stronger binding
Target: Histone acetyltransferase KAT6A, both winged helices, GST fusion (KAT6A, Homo sapiens, UniProt Q92794, residues 1-181)
Setting: 8-mer, flanks averaged, mean of 2 arrays, mostly near background
Residues (chain): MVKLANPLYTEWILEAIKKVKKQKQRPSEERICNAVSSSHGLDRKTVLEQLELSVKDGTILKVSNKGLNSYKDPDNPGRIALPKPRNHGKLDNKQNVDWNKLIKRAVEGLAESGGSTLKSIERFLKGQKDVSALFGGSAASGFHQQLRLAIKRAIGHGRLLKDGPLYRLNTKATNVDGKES
| Strand | E-score |
| --- | --- |
| TGACATCA | -0.0616 |
| CGCACACA | 0.162 |
| CAGAGGGC | -0.0549 |
| ATGATCCC | -0.0763 |
| GTATTGCA | -0.0586 |
| TGGGCAAA | -0.231 |
| CATGCATC | 0.0536 |
| CAACCGGA | 0.136 |
| ATGCACTG | -0.271 |
| GCTATAGA | -0.0155 |
| ACGACTCG | 0.0167 |
| ACGCTAAC | 0.159 |
| ATGGGACA | -0.00617 |
| AGGAACCG | 0.0772 |
| AAGCACAC | -0.114 |
| AAGGCTAC | -0.18 |
| GTCAGGAC | -0.128 |
| GAGTGGCA | -0.147 |
| CCATAGCC | 0.0109 |
| AAGGCCGG | 0.218 |
| CACCATGC | -0.0921 |
| AAATTACG | -0.0591 |
| ACTATACA | -0.11 |

Study 4 — technique: DHFR PCA, deep sequencing; sample: yeast; together with: (+)-ABA 0.11 µM; baseline: wild-type fitted maximum; reading: higher = stronger binding
Target: ABI1, truncated, D143A, DHFR fusion (Arabidopsis thaliana)
Setting: methotrexate growth selection, single substitutions
Starting sequence: PYL1, truncated, DHFR fusion (Arabidopsis thaliana); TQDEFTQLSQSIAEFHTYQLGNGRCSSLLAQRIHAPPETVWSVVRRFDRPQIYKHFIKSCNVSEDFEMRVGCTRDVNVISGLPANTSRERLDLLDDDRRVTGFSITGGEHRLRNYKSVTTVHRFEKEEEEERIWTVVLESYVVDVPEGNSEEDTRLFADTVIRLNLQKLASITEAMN; partner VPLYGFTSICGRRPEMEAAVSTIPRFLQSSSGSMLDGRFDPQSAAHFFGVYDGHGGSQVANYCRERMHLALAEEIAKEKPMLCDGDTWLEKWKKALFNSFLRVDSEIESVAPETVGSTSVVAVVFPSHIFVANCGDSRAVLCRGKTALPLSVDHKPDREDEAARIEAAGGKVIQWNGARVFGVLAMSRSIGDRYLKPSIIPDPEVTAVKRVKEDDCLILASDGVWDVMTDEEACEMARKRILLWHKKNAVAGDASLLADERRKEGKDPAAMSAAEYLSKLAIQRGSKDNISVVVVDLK
| Substitution | relative binding score [%] |
| --- | --- |
| D48P | -6.39 |
| F124Y | 31.8 |
| S104P | -4.96 |
| V44M | 5.38 |
| R88Q | 38.5 |
| E131F | 14.4 |
| S27F | -1.94 |
| N177M | 7.67 |
| S150N | 27.3 |
| V100Q | -10.2 |
| A170D | 3.62 |
| Q2K | 31.9 |
| S59E | 31.9 |
| L156R | 5.81 |
| V161S | 5.6 |
| T135C | 13.6 |
| G148M | -6.55 |
| T154I | 21.6 |
| E38W | 8.65 |
| L156A | 18.6 |
| N85T | 69.4 |
| E151N | 1.29 |
| E4W | 24.2 |
| V145S | -13.6 |
| T135R | 5.53 |

Study 5 — technique: RNA Bind-n-Seq; molecule type: RNA; sample: in vitro; concentration: 365 nM; baseline: no-protein control; reading: higher = stronger binding
Target: RNA binding protein fox-1 homolog 2, RRM domain, GST-SBP tag (RBFOX2, Homo sapiens, UniProt O43251-10, residues 100-194)
Setting: natural RNA segment, single round, ends assumed
Shared flanks, not repeated: GGGAGUUCUACAGUCCGACGAUC … UGGAAUUCUCGGGUGCCAA
Target sequence (chain): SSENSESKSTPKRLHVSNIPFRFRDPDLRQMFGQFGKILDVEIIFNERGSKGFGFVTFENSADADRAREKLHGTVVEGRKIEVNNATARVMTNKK
| Strand | RBNS enrichment (R) |
| --- | --- |
| UUACCCCCAGCUCAAGAUGGACAGGGUUCUUCUGGUCAUCUCCCUUCCACCUCUUCCACCCUCAUGGAUGCCUUCCAGAAGCUGUCUCCAACCAUGCACACCACAGAGAG | 0.618 |
| UAACUAAGGUUUUGCUACUAAUGUCAGCCAUUUACUCUCCCACUAAUUGGGAUUAUUUUUUAAAAGAGGUCUUUCUCCCCGAAAUACAAGUUUUAGAAAAUCUUAGAAGA | 0.552 |
| GAAAUUGCUGGAGCCGGCUCCAAGCAGAUAAUUCACUGGGGAGGUUUUCAGAGUCAAACAUCAUUCUGCCUGUGUUGGGGGCCAGGUGUGUCACACAAGCAUCUCAAAGU | 0.664 |
| UUGCCAGGAUAAAAAUGUGGCCACCGCUAGAUUUCUCUUACCUACCCGUUGCAACUGGUCCCAGACCAGAAUGGCCUCCUCAGAAGGGGAGGUGCUCUUCAAAUCUCCCU | 0.262 |
| CUAAGACUCACGUGCACGAAUCGAAGAGUAAAGAGACAAUACUUGUGAACGUGUGAACGUUAACACUGUAGUUGCUAGAUCUUAAGCUGCUAAUUGUCGAGAGAGAAUUC | 2.64 |
| AGAGCUCCCCUGUUUUCUGUUUAAUUGAUGAGCCUGGGAAAGGAGUGUGUUCUGCCUGCCCGUUACAGUGGAGCGUUCCGUGUCCAUAAAACGUUUUCUAACUGGGUGUU | 1.84 |
| UCCCUGUGAGGCGACAGUACAUGUGAGAAGAGGUACAUUUGUUGGAUUUUUGUUAAUGUAUUUAUUUCAUUCCAGUUUGAUUUAUUUUAAUUGUUGAUACUUAAGUUGUC | 1.2 |
| GUGAUGCUUAGGUAAUCUCUGGGAUCCGAUUUUCCCACAUGUCUCACUCCACAGUAUGCUAAAGAAGAAAAAGUGAGUGGGCACAACACUUUGACCCUCUGGCUAAGCCC | 0.763 |
| GCCACAGACAGCACAAGAUGUUCACACUAAAGAGAGAGAAGGUGGCUUUUUAUAUGUUAUGUUUUAUACCCAGUAACAAGUGAAUAAACCUCUUUAUAUUUGCACAAGGA | 0.915 |
| AGUACUAAAAUCUGUCAAGUGUUUUCAGUAUAGCACAUUAUUUACUGAGUGCCAGUUGUAAAUGUUUUUCAACCAGCACCUAAAAAGACUCUUUUCAAAAAAUCACAGAA | 1.08 |
| AACAUCACUGCUGCAGCGAGGCAGCUCCUCUGUCUACUCGUUCAAGUGUCUUACUCUACUGGAUGCUGGAUAGAAAUUUAGGGUAACUUCUGACAAAGUGUGCCGGUCUA | 0.301 |
| CACUCCCAGGUGCAUGCUUCAGUGAGUGCCACAUGCCACUAGCUUUUACCAAUAACCAUAUUCUGGCUUAUUCUCCUACCCUCUGCUUCCAUUCAAUCUUCCCCACUAGG | 3.3 |

Some of these lines once more (study 1):
| Strand | E-score |
| --- | --- |
| CAAGGTGA | -0.185 |
| ATTAAAGC | 0.227 |
| CGCTGTTC | -0.189 |
| GGGAGGCA | -0.239 |
| TATTCACA | 0.238 |
| ACTCTTAC | 0.194 |
| GTTTCGTA | 0.142 |
| AAGCACTT | 0.0911 |
| CCTACTGC | -0.149 |
| CACGTAAG | 0.0899 |
